Published values collected from several papers.
A part holds a random share of what one study measured. Several values in a cell are separate wells, animals, samples, runs or records.
Sequence of UniProt Q04759 (whole entry, looked up): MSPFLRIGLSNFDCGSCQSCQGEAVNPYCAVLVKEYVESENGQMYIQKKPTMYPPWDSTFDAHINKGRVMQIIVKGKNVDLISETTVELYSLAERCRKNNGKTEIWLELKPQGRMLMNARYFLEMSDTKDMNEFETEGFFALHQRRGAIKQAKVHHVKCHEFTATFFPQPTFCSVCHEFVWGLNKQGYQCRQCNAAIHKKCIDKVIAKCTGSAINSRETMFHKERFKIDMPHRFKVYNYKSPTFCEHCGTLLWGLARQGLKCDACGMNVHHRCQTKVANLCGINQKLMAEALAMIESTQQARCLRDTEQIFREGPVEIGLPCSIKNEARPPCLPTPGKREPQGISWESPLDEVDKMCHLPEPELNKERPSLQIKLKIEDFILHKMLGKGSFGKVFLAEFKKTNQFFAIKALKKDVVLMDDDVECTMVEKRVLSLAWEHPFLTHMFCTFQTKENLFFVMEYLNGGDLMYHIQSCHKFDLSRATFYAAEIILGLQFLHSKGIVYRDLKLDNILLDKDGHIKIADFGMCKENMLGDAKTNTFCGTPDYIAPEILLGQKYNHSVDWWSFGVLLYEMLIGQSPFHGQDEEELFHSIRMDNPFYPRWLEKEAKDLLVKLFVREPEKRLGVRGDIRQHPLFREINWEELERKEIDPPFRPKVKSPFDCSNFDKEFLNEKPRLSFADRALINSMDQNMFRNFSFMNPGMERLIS
Sequence of UniProt Q05513 (whole entry, looked up): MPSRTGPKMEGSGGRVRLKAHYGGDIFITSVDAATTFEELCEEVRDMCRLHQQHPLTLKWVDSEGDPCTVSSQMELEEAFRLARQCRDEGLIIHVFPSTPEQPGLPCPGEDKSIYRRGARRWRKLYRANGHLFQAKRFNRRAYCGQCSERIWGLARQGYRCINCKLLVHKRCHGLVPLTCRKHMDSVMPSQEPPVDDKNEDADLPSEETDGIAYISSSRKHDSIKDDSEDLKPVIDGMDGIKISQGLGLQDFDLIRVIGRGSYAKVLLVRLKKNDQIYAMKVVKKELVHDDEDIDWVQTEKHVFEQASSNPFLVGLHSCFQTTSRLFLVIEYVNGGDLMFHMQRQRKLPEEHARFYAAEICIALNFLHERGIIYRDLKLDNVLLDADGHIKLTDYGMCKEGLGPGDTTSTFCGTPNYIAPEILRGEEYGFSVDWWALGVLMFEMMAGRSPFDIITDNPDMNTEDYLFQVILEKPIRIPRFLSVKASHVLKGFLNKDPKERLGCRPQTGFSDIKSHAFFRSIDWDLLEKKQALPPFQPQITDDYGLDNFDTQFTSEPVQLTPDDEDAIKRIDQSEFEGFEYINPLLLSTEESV
Sequence of UniProt P48730 (whole entry, looked up): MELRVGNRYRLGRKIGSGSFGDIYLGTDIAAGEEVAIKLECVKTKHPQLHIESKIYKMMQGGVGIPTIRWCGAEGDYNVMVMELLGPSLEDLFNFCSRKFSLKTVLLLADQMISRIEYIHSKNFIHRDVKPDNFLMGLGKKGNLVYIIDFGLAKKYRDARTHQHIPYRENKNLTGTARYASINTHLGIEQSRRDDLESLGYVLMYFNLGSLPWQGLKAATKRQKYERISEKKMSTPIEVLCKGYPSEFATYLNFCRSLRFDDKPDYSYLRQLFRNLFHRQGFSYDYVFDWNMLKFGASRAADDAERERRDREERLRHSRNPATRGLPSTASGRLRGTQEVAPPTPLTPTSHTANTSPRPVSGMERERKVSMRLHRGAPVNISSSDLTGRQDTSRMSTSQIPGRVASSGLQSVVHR

Set 1
Compound: O=C1NC(=O)c2c1c1c3ccccc3n3c1c1c2c2ccccc2n1[C@H]1CC[C@@H]3O1
Effect on: enzyme activity
Action: inhibitor
Tested at: 0.5 µM
Baseline: control
For Protein kinase C zeta type (PRKCZ, Homo sapiens, UniProt Q05513): remaining activity read 87.4%.
Casein kinase I isoform delta (CSNK1D, Homo sapiens, UniProt P48730) — remaining activity: 93.8%.
Protein kinase C theta type (PRKCQ, Homo sapiens, UniProt Q04759) — remaining activity: 43.2%.
Cyclin-dependent kinase 2, with cyclin E (CDK2, Homo sapiens, UniProt P24941) — remaining activity: 28.5%.

Set 2
Cell line: HEK-293T
Effect on: pseudovirus infection
Method: FDA-approved drug library counter-screen
Organism: VSV pseudotyped with VSV-G
Tested at: 10 µM
Time: 16 h
Baseline: vehicle-treated
For `COc1ncnc(NS(=O)(=O)c2ccc(N)cc2)c1OC`, the GFP-positive cells was 87.4%.
The GFP-positive cells of `O=C(O)[C@@H](S)[C@@H](S)C(=O)O` is reported as 112%.
The GFP-positive cells of `O=C1CCC(N2C(=O)c3ccccc3C2=O)C(=O)N1` (centres unmarked) is reported as 98%.
For `C[C@]12CC[C@@H]3c4ccc(OC(=O)c5ccccc5)cc4CC[C@H]3[C@@H]1CC[C@@H]2O`, the GFP-positive cells was 103%.

Set 3
Target: UDP-N-acetylglucosamine--peptide N-acetylglucosaminyltransferase 110 kDa subunit (OGT, Homo sapiens, UniProt O15294)
Sequence of UniProt O15294 (whole entry, looked up): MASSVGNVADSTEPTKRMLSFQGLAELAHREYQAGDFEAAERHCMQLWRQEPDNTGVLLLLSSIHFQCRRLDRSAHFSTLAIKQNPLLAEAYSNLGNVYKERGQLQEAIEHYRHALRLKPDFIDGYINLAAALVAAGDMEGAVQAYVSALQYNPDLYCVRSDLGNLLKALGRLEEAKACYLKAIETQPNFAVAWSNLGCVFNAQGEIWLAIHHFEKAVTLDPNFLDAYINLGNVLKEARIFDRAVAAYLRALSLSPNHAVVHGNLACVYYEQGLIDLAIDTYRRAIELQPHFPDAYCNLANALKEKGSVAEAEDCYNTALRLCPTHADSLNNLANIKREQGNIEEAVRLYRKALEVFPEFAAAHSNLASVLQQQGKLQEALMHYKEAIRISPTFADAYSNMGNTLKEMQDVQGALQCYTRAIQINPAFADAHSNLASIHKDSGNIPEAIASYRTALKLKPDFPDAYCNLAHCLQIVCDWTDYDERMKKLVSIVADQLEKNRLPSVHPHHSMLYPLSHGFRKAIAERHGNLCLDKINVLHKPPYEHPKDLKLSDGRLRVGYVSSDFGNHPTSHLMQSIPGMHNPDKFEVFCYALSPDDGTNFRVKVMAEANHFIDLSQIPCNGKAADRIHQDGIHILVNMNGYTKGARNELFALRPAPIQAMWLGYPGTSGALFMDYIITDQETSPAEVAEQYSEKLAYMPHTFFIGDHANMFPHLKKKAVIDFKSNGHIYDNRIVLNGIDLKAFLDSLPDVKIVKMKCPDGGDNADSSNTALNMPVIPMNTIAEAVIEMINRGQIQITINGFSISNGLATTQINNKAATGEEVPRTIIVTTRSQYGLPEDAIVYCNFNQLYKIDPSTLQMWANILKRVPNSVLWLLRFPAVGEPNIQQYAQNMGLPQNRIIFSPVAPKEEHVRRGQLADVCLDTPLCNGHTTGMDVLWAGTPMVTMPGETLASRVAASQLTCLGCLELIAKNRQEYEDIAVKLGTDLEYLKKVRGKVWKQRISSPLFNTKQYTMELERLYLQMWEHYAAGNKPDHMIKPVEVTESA
Effect on: phage display binding
Method: phage display panning NGS
Form: peptide
Baseline: OGT-panned over input library
For `HSQHAIHHTIDNHA`, “log2 fold enrichment” read 3.49.
`EPRHLYHIHQDHRQT` — result for “log2 fold enrichment”: 2.7.
`QMEYYPQYQLRYMQV`: “log2 fold enrichment” 1.49.
For `TSATSYLPYYTIYPG`, “log2 fold enrichment” read 3.18.
`ERNFTHHVHRDPHR`: “log2 fold enrichment” 2.48.
For `QLKHTIHHHHTAPRY`, “log2 fold enrichment” read 2.94.
For `SIPEVFFAPVYQIET`, “log2 fold enrichment” read 3.07.
For `HSWHYYHIEHTAAHE`, “log2 fold enrichment” read 2.63.

Further values, each from its own experiment
For `CN(N=O)C(=O)N[C@@H]1[C@@H](O)[C@H](O)[C@@H](CO)O[C@@H]1O`, the body weight was 37.2 g and 35.7 g and 32.9 g and 39.2 g and 33.9 g (mice, STZ diabetic neuropathy; dose not given, 3 days after STZ).

A few entries again (set 3):
`QMEYYPQYQLRYMQV`: “log2 fold enrichment” 1.49.
For `SIPEVFFAPVYQIET`, “log2 fold enrichment” read 3.07.
For `TSATSYLPYYTIYPG`, “log2 fold enrichment” read 3.18.
